Assay results pooled from the literature.
Lines come from different studies, so protocols differ. “And” joins repeats or separate records; there may be more than shown. pEC50: −log10 of the molar value.

Structure (SMILES) | target or system | test | test system | conditions | how to read | endpoint | value
OC(CCN1CCCCC1)(c1ccccc1)C1CC2C=CC1C2 (stereo not drawn) | – | resting-state EEG | healthy elderly humans | oral, 2 mg, eyes closed, LS mean | – | EEG power, beta, Pz-O1 | 8.1 µV²
NC(=O)c1cnc2[nH]ccc2c1N[C@@H]1[C@@H]2CC3C[C@H]1C[C@@](O)(C3)C2 | – | flow cytometry | Japanese healthy men, blood | oral, 100 mg twice daily, 72 h after day 7 dose | relative to: baseline | CD8+ effector memory change | 0.18%
CN1CCC[C@@H]1CCO[C@](C)(c1ccccc1)c1ccc(Cl)cc1 | H+/organic cation antiporter | cell uptake | hCMEC/D3 | – | – | Vmax | 2700 pmol/min/mg protein
O=C(/C=C/C=C/C=C/C1CCCCC1)NC1=C[C@@](O)(/C=C/C=C/C=C/C(=O)NC2=C(O)CCC2=O)[C@@H]2O[C@@H]2C1=O | cck81 | cell growth, inhibitor, CellTiter-Glo luminescence | – | 78 h | relative to: day 0 cell count | GI50 | > 30000 nM
CCn1cc(-c2cc(Cn3ccoc3=N)cc3c2CCN([C@@H](C)c2cc(OC)ccn2)C3=O)c(C(F)(F)F)n1 | LS-513 | cell growth, inhibitor | – | 120 h | – | pEC50 | 6.02
O=C1CC2(CCCC2)CC(=O)N1CCCCN1CCN(c2ncccn2)CC1 | H+/organic cation antiporter | cell uptake | hCMEC/D3 | – | – | Km | 15.4 µM
Oc1ccccc1-c1n[nH]cc1-c1ccnc2ccccc12 | RTK1 (Candida albicans) | kinase binding, MIB/MS competition | Candida albicans lysate | 1 µM | relative to: DMSO | log2 fold change | 0.02
Cn1cc(-c2ccc(-c3cncc(Cl)c3N3CCC4(CCNC4=O)CC3)cc2)cn1 | COLO 205 | microarray, item: CD55 | – | concentration not given, 6 h, gene set DAF | relative to: untreated cells | fold change in expression | 1.56
c1coc(-c2n[nH]cc2-c2ccnc3ccccc23)c1 | RIO2 (Candida albicans) | kinase binding, MIB/MS competition | Candida albicans lysate | 1 µM | relative to: DMSO | log2 fold change | -0.22
Cc1nn(-c2nc3c(F)cc(F)cc3s2)c(O)c1C(c1ccc(C(F)(F)F)cc1)c1c(C)nn(-c2nc3c(F)cc(F)cc3s2)c1O | – | item: inflammatory infiltration | mouse, cerulein-induced acute pancreatitis | 25 mg/kg | direction not given | histology score | 0 and 2
O=C(O)CNC(=O)Cc1ccccc1 | – | – | ventricular cardiomyocytes, C57BL/6 mouse | dose not given, 0.836 s | – | sarcomere length | 1.64 µm
COc1cnc2cccc(N3CCc4c(cc(Cn5ccnc5C)cc4-c4cn(C)nc4C(F)(F)F)C3=O)c2c1 | KP-4 | cell growth, inhibitor | – | 120 h | – | pEC50 | 6.59
